Measured values collected from several papers.
Lines come from different studies, so protocols differ. Positions count from the first letter of the parent shown. ± marks the error that the study gave.
Cdca7: Cdca7 241-382 (Mus musculus, UniProt Q9D0M2)
Chain of UniProt Q9D0M2 (whole entry, unmodified, looked up): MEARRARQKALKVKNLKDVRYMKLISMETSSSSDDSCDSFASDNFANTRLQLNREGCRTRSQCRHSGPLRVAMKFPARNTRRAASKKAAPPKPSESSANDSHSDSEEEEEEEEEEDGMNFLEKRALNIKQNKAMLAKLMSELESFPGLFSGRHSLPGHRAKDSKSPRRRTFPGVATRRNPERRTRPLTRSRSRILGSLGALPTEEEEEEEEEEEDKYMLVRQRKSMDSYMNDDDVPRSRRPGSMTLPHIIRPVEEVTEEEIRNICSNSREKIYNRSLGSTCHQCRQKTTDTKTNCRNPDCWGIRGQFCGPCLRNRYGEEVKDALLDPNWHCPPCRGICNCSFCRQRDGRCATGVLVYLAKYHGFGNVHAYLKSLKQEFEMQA
T1: MBNL1 ZF1-2 duplicated; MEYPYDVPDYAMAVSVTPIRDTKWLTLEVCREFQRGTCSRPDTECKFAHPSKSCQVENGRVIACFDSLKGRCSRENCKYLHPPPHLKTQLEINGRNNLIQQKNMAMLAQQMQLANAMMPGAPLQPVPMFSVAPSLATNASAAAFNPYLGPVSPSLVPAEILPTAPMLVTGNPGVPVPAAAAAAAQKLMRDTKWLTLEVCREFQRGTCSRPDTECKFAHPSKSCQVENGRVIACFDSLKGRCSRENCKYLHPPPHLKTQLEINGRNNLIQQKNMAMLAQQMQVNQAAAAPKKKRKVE
P1: PRDX1 (Homo sapiens); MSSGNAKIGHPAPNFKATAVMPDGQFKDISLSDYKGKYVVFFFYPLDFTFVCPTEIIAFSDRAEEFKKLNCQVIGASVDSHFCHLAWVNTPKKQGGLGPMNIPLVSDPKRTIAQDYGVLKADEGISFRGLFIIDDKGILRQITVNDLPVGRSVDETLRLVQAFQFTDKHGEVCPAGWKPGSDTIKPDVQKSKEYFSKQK
P2: ITGA2 cytoplasmic domain peptide (Homo sapiens); WKLGFFKRKYEKM
P3: PRDX1 residues 1-199; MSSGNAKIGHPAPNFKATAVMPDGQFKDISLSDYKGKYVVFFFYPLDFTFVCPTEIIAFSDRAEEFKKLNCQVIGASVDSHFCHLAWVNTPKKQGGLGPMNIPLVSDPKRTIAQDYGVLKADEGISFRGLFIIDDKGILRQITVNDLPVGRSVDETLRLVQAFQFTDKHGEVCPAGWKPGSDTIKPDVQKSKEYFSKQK
B1: SULT1A1 (Homo sapiens, UniProt P50225); chain MELIQDTSRPPLEYVKGVPLIKYFAEALGPLQSFQARPDDLLISTYPKSGTTWVSQILDMIYQGGDLEKCHRAPIFMRVPFLEFKAPGIPSGMETLKDTPAPRLLKTHLPLALLPQTLLDQKVKVVYVARNAKDVAVSYYHFYHMAKVHPEPGTWDSFLEKFMVGEVSYGSWYQHVQEWWELSRTHPVLYLFYEDMKENPKREIQKILEFVGRSLPEETVDFVVQHTSFKEMKKNPMTNYTTVPQEFMDHSISPFMRKGMAGDWKTTFTVAQNERFDADYAEKMAGCSLSFRSEL
Chain of UniProt Q06609 (whole entry, looked up): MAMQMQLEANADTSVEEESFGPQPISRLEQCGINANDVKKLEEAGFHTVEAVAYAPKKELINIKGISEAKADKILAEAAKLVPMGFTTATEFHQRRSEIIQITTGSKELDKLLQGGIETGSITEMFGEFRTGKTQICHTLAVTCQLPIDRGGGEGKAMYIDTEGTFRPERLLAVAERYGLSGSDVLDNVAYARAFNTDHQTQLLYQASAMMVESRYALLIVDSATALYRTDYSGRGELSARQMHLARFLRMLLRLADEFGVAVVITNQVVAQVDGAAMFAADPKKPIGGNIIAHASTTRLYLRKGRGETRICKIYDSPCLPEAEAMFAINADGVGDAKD
Chain of UniProt Q9H6S0 (whole entry, looked up): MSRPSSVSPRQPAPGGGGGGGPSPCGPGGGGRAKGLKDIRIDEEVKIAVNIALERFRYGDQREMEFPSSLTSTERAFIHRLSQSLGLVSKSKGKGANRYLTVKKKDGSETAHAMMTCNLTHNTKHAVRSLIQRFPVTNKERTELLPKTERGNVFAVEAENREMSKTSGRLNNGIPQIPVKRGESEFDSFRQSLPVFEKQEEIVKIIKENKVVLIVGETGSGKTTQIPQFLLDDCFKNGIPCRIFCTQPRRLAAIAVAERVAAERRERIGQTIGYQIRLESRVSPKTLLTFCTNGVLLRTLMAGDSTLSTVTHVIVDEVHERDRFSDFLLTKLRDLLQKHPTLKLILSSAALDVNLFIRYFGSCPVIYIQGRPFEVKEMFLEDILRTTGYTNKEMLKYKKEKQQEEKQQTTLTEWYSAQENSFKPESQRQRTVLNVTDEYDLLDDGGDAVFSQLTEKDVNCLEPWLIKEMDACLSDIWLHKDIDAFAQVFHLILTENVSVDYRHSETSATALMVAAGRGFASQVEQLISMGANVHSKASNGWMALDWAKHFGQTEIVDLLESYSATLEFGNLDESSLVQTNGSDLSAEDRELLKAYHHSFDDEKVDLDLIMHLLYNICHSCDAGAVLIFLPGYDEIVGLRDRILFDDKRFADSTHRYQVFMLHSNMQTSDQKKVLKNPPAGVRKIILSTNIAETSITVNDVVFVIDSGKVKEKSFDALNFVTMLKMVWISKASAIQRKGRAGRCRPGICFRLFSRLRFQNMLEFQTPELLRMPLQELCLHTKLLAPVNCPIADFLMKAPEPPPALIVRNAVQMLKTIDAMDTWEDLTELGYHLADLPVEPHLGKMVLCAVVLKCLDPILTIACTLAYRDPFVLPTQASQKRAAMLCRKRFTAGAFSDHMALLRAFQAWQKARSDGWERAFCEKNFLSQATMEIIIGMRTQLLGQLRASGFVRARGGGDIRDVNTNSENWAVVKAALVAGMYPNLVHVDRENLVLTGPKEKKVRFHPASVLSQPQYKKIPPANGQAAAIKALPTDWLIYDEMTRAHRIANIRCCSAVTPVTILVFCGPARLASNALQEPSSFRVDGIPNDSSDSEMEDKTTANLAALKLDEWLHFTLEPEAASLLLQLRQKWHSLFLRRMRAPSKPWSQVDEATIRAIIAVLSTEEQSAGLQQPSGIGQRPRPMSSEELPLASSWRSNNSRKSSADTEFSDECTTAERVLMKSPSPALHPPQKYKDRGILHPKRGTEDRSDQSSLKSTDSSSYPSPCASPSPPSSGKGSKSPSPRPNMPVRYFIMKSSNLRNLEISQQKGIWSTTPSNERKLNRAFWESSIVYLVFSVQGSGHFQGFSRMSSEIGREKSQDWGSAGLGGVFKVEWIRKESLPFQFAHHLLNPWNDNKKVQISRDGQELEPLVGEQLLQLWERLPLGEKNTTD
Chain of UniProt P19525 (whole entry, unmodified, looked up): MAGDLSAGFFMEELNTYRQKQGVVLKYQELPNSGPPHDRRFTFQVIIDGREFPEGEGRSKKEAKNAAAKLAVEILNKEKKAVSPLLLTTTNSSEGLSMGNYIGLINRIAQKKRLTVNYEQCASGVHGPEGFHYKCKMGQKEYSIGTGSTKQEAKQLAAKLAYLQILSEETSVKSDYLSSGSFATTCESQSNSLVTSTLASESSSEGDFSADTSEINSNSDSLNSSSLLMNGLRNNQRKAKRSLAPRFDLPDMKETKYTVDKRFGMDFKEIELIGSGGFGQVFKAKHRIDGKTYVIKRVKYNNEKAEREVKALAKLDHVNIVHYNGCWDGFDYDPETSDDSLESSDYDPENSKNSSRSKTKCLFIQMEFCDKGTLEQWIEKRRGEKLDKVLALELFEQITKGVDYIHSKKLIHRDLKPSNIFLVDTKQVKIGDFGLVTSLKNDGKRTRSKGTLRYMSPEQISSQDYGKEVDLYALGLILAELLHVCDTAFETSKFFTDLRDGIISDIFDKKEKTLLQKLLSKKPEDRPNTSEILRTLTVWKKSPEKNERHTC
Chain of UniProt P00698 (whole entry, looked up): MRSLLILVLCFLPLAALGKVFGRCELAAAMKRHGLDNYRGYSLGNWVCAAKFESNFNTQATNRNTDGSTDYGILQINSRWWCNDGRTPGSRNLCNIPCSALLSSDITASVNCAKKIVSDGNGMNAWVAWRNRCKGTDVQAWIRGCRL
Chain of UniProt Q16637 (whole entry, looked up): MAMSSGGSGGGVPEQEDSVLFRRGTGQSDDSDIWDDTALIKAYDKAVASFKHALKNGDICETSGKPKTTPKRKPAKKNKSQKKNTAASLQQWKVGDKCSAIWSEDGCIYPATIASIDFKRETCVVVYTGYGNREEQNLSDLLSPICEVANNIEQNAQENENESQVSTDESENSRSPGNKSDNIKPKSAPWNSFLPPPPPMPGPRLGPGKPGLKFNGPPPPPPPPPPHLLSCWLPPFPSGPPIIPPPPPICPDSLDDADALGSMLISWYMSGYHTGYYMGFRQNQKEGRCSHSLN
Chain of UniProt Q9UKA9 (whole entry, looked up): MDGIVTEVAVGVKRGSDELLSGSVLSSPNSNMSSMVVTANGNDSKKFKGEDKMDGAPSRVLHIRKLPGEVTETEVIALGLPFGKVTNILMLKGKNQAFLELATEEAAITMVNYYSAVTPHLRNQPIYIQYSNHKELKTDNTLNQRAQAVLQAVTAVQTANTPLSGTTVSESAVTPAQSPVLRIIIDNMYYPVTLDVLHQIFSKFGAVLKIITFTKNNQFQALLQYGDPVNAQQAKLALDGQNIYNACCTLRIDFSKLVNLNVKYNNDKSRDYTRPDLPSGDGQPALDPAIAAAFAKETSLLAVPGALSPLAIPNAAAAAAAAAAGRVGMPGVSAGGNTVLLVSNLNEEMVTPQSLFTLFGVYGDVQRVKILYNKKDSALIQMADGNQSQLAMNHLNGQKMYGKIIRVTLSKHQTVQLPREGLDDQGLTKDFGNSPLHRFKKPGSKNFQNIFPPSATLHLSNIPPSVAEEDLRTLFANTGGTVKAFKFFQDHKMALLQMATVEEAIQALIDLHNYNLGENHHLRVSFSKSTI
Chain of UniProt P27695 (whole entry, unmodified, looked up): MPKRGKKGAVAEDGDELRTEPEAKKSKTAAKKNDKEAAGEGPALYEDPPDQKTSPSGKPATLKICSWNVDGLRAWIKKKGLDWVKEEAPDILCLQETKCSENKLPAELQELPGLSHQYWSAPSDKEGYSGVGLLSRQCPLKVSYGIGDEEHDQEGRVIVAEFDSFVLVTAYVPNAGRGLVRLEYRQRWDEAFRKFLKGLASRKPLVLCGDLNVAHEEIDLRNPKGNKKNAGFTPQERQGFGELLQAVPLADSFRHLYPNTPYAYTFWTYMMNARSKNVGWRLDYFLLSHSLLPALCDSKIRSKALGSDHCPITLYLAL
Chain of UniProt O94992 (whole entry, unmodified, looked up): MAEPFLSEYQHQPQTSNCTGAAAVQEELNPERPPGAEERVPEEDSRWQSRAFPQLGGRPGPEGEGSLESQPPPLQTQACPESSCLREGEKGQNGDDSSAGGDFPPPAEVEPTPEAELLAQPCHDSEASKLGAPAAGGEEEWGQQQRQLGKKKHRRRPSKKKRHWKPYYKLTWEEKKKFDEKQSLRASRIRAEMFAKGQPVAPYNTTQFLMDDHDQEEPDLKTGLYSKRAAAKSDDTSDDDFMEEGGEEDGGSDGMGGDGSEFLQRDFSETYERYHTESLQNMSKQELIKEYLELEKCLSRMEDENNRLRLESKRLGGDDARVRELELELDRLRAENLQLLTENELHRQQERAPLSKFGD

Molecule | target or system | assay | system | setting | how to read | quantity | value
CTTTTTTTTATAACCGACATTACAAGTCTC (dsDNA) | Ethylene Responsive Factor ERF2 (Pyrus ussuriensis, UniProt A0A4D5XF43) | EMSA | double-stranded DNA, one strand shown | added: unlabeled competitor |  | binding | binds
DNA 1 TGGCCAAAAAAGCATTGCTTATCAATTTGTTGCACC / DNA 2 TGGTGCAACAAATTGATAAGCAATGCTTTTTTGGCC (dsDNA; 5' T overhangs) | IHF alpha/IHF beta K84A (Escherichia coli) | FRET, laser T-jump | double-stranded DNA | KCl 100 mM |  | binding | binds
TGTGATAGCGTGATTTATCGCGCTGCGTTAGGTGTATAGCAG (ssDNA) | traI 1-299 Y18F/Y19F/Y26F/Y27F (Escherichia coli, UniProt Q9X4G2) | fluorescence anisotropy | single-stranded DNA | no added metal |  | binding | binds
CAAGTCCCTGTCGGTGAGGAACCGTTTGAC (DNA; hairpin) | Cdca7 | EMSA | folded DNA |  |  | binding | binds
GCCCUCUCUCCCGCCGCCCGCCCGCCACCCGCCAGCCCAGGUGCCCGCCCGCCAGUCAGCUAGUCCGUCGGUCCGCGCGUCCCUCUGUCCCGGAGCCCGCAGAUCGCGACCCAGAGCGCGCGGGGCCGAGAGCCGAGAGACAGUCCCGGGCGCAGCGCGGAGCUCCGGGCCCCGAGAUCC (structured RNA) | PTBP2 full length assumed (Homo sapiens, UniProt Q9UKA9) | EMSA | folded RNA |  |  | binding | binds
UUUUGCUUUUUUUUUUUGCUUUU (ssRNA) | T1, MBNL1 ZF1-2 duplicated | EMSA | RNA |  |  | binding | binds
RNA 1 GGAGGAUGUUAAUUGGCGUGUCUUGUCUGCAACGGUAUUC / RNA 2 GAAUACCGUUGCAGACAAGACACGCCAAUUAACAUCCUCC (dsRNA) | EIF2AK2 1-185 F131W/R107A (Homo sapiens, UniProt P19525) | tryptophan fluorescence anisotropy | double-stranded RNA | 1 µM |  | binding | binds
GGCGAUCUGGCUGCGACAUCUGUCACCCCAUUGAUCGCC (ssRNA; hairpin) | HEXIM1 full length assumed K152I/H153L/R154A/R155A (Homo sapiens, UniProt O94992) | EMSA | folded RNA |  |  | binding | no binding
GGGAUCCGACUCCAUGAAAGGAAAAGGCACCCGAGAUAAAGUCCUGAUCAGAAUCAUGGUCUCCAAGCU (structured RNA) | Survival motor neuron protein 1-294 (Homo sapiens, UniProt Q16637) | competition | folded RNA | complete loss |  | binding | no binding
TTTTTTTTTTTTTTTTTTTTTTT (ssDNA; unstructured) | APEX1 34-318 del1-33 (Homo sapiens, UniProt P27695) | SPR | single-stranded DNA |  |  | binding | no binding
DNA 1 GCTGATCAACGCCCTGTCGGTGAGACTAGTACATG / DNA 2 CATGTACTAGTCGAACCGTTTGCGTTGATCAGC (DNA; 5mC on both stem CpGs) | Cdca7 | EMSA | folded DNA |  |  | binding | no binding
CGGGTGTCGGGGCTGGCTTAACTATGCGGCATCAGAGCAGATTGTACTGAGAGTGCACCATATGCGGTGTGAAATACCGCACAGATGCGT (ssDNA) | RAD51 full length assumed (Homo sapiens, UniProt Q06609) | filter binding | single-stranded DNA |  |  | binding | binds
GGGUUCAUCAGGGCUAAAGAGUGCAGAGUUACUUAGUUCACUGCAGACUUGACGAAGCUU (structured RNA) | LYZ 19-147 (Gallus gallus, UniProt P00698) | filter binding | folded RNA |  |  | binding | binds
CGAGGAACATGTCCCAACATGTTGCTCGAG (dsDNA) | TP53 fragment (Homo sapiens) | EMSA | double-stranded DNA, one strand shown |  |  | binding | binds
GAAACGGGACGGCACCUCUUUUAACCCUUGAAGUCACUGCCCGUUUCGAGAGUUUCUCAACUCGGCCAACGUGAACUUUUGCGGAUCUCCAGGAUCCGCUUUUUUUU (structured RNA) | hfq full length assumed F42W (Escherichia coli, UniProt P0A6X3) | tryptophan fluorescence quenching | folded RNA |  |  | binding | binds
CAACGCCCTGTCGGTGAGAAACCGTTTGCA (DNA; hairpin) | Cdca7 241-382 R285H (Mus musculus, UniProt Q9D0M2) | EMSA | folded DNA |  |  | binding | no binding
DNA 1 GTCGACCAGCTGAGTCGACCAGCTG / DNA 2 CAGCTGGTCGAC / DNA 3 CAGCTGGTCGAC (dsDNA; nicked, N6-methyl-dA) | YTHDC2 1268-1430 (Homo sapiens, UniProt Q9H6S0) | pull-down | double-stranded DNA |  |  | binding | no binding
P1 F48A | DOK3 | co-IP | HEK-293T | read off a plot, added: SAB 60 µmol/L | higher = more binding | IP/Input | 0.5 IP/Input
RNA 1 GGAGGAUGUUAAUUGGCGUG / RNA 2 CACGCCAAUUAACAUCCUCC (dsRNA) | EIF2AK2 1-185 F41W (Homo sapiens, UniProt P19525) | tryptophan fluorescence anisotropy | double-stranded RNA | 1 µM |  | binding | binds
GAAACGGGACGGCACCUCUUUUAACCCUUGAAGUCACUGCCCGUUUCGAGAGUUUCUCAACUCGAAUAACUAAAGCCAACGUGAACUUUUGCGGAUCUCCAGGAUCCGCUUUUUUUU (structured RNA) | hfq full length assumed K31W (Escherichia coli, UniProt P0A6X3) | tryptophan fluorescence quenching | folded RNA |  |  | binding | binds
P2 L3A G4A | RASA1 GAP domain 714-1047 (Homo sapiens) | fluorescence polarisation |  |  | reference: unchanged protein, higher = more binding | relative binding | 7
P3 T49A | DOK3 fragment | pull-down |  | without SAB, read off a plot | higher = more binding | IP/Input | 0.13 IP/Input
CAACGCCCUGUCGGUGAGAAACCGUUUGCA (ssRNA) | Cdca7 | EMSA | RNA |  |  | binding | no binding
DNA 1 TGGCCAAAAAAGCATTGCTTATCAATTTGTAGCACC / DNA 2 TGGTGCTACAAATTGATAAGCAATGCTTTTTTGGCC (dsDNA; 5' T overhangs) | IHF alpha/IHF beta (Escherichia coli) | FRET, laser T-jump | double-stranded DNA | KCl 100 mM |  | binding | binds
P2 W1A K2A | RASA1 GAP domain 714-1047 (Homo sapiens) | fluorescence polarisation |  |  | reference: unchanged protein, higher = more binding | relative binding | 24
ACTAGTCGAACCGTTTGCGTCGC (ssDNA) | Cdca7 | EMSA | single-stranded DNA |  |  | binding | no binding
B1 (SULT1A1) | O=C(O[C@@H]1Cc2c(O)cc(O)cc2O[C@@H]1c1cc(O)c(O)c(O)c1)c1cc(O)c(O)c(O)c1 | steady-state kinetics |  | pH 7.4, not purified, added: EGCG 0–0.4 µM |  | Vmax | 0.0357 µmol/min/mg
UGGAGCCUUCCACCCCGGCACUCAUGACGGUCUGCCUGAAAACCAGCCCGCUGGUGGGGCAGUCCCGAGGACCUGGCGUGCAUCCCCGCCGGAGGAAGGUCCA (structured RNA) | Sbp2 full length assumed (Drosophila melanogaster, UniProt Q9VSH1) | EMSA | folded RNA |  |  | Kd | 220 ± 50 nM

Some of these lines once more:
Molecule | target or system | assay | system | setting | how to read | quantity | value
RNA 1 GGAGGAUGUUAAUUGGCGUG / RNA 2 CACGCCAAUUAACAUCCUCC (dsRNA) | EIF2AK2 1-185 F41W (Homo sapiens, UniProt P19525) | tryptophan fluorescence anisotropy | double-stranded RNA | 1 µM |  | binding | binds
GAAACGGGACGGCACCUCUUUUAACCCUUGAAGUCACUGCCCGUUUCGAGAGUUUCUCAACUCGAAUAACUAAAGCCAACGUGAACUUUUGCGGAUCUCCAGGAUCCGCUUUUUUUU (structured RNA) | hfq full length assumed K31W (Escherichia coli, UniProt P0A6X3) | tryptophan fluorescence quenching | folded RNA |  |  | binding | binds
P2 L3A G4A | RASA1 GAP domain 714-1047 (Homo sapiens) | fluorescence polarisation |  |  | reference: unchanged protein, higher = more binding | relative binding | 7
P3 T49A | DOK3 fragment | pull-down |  | without SAB, read off a plot | higher = more binding | IP/Input | 0.13 IP/Input
